Measured values collected from several papers.
Compare with care: the assays were run in different laboratories. Numbers after ± are the reported error.
Organism: Plasmodium falciparum

O=C(CC1NCCCC1O)Cn1cnc2cc(Br)c(Cl)cc2c1=O (stereo not shown)
IC50 (parasite growth; conditional knockdown control line; 120 h, together with: 12.5 nM anhydrotetracycline): 0.4 nM

CCC1=C(CC)/C(=C/c2cc(Cc3ccc(OC(F)(F)F)cc3)c(C)[nH]2)N=C1c1ccc[nH]1
IC50 (parasite growth, SYBR Green fluorescence; Tm90-C2B (atovaquone-resistant), asexual blood stage; 72 h): 213 nM

COc1nc2ccc(Br)cc2cc1[C@@H](c1ccccc1)[C@@](O)(CCN(C)C)c1cccc2ccccc12
IC50 (parasite growth, stage-specific treatment; 12 h, early to late schizont stage): 1540 ± 120 nM

COc1cc(C)c(-c2ccc(O)c3c2C[C@@H](C)N[C@@H]3C)c2cccc(O)c12 (single isomer, unassigned)
IC50 (asexual parasite growth, SYBR Green I; clinical isolate SB_04, Malawi): 13.8 ± 0.35 nM

c1ccc(Oc2ccc(-c3cc(C4CCOCC4)[nH]n3)cc2)cc1
IC50 (parasite growth, inhibitor, SYBR Green I; 3D7): > 100000 nM

COC1=C(OC)/C(=C/c2[nH]c(Cc3ccc(OC(F)(F)F)cc3)cc2Cc2ccc(OC(F)(F)F)cc2)N=C1c1ccc[nH]1
IC50 (parasite growth, SYBR Green fluorescence; Tm90-C2B (atovaquone-resistant), asexual blood stage; 72 h): 103 nM

CCN(CC)CCCC(C)Nc1ccnc2cc(Cl)ccc12 (stereo not shown)
IC50 (asexual parasite proliferation, SYBR Green I fluorescence; K1): 157 ± 31 nM

CC1=C(C)/C(=C/c2cc(Cc3ccc(Cl)cc3)c(C)[nH]2)N=C1c1ccc[nH]1
IC50 (parasite growth, SYBR Green fluorescence; Tm90-C2B (atovaquone-resistant), asexual blood stage; 72 h): 836 nM

CC(C)(C)NC(=O)[C@@H]1CN(Cc2cnc3occc3c2)CCN1C[C@@H](O)C[C@@H](Cc1ccccc1)C(=O)N[C@H]1c2ccccc2C[C@H]1O
IC50 (parasite growth, stage-specific treatment; 12 h, early to late trophozoite stage): > 10000 nM

COc1cc(CO)c(-c2ccc3c(c2O)[C@@H](C)N[C@H](C)C3)c2cccc(O)c12
IC50 (asexual parasite proliferation, SYBR Green I fluorescence; HB3): 11 ± 1.9 nM
